Experimental data of several laboratories.
Numbered parts are unrelated; each lists some results of a single study.

Set 1 — method: RNA Bind-n-Seq; molecule type: RNA; sample: in vitro; tested at: not given; relative to: input RNA pool; direction: higher = stronger binding
Target: RING finger protein unkempt homolog, zinc fingers 1-6, GST-SBP tag (UNK, Homo sapiens, UniProt Q9C0B0, residues 30-357)
Setting: RNA with constant flanks, human-mouse chimeric sites, ends assumed
Target sequence (chain): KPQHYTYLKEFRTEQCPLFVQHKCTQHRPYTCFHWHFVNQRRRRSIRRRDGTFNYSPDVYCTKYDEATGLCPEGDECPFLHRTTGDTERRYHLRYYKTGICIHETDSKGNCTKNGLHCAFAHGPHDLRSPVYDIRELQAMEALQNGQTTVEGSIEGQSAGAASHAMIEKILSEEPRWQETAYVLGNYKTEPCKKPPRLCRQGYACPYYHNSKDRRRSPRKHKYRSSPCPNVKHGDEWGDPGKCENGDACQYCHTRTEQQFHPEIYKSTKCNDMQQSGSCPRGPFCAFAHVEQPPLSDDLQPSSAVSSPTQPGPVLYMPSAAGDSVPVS
With `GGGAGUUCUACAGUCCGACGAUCGGUGGGGUGGUCAUUGCCGUUUGAGCUGCUGAUUUUCAUGAGUCGCCUUCAAAACUCUCGUGUAGGGUUGACAAUGUGGGGGGGUGGGAAAUCUAGCUUAUUCUUUUUCCCCAGCCCCCACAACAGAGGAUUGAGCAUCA` the bound/input enrichment was 19.8 ratio.
The bound/input enrichment of `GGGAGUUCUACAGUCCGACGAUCGGCUGCUACUAUUCUCCCUGGAGUGGCUGGAGUUCCCGCCGGAGCGCGGCCAGACUAAUUUUAGAAAAUGCCAAGUAGGAAAUUUGCUGAGGGUGAAGUGGUCAGAGGCCGAUGGCCUGGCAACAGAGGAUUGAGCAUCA` is reported as 5.41 ratio.
With `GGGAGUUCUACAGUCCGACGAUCAUGGAACAUUUCGAUGCGUCACUCAGUACCUAUUUCAAGGCAUUGCUGGGCCCCCGAGAUACAAGAGUCAAAGGAUGGUUCCUCCUGGACAAUUACAUACCCACAUUUGUCUGUUCUGUUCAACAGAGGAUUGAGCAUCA` the bound/input enrichment was 0.0787 ratio.
With `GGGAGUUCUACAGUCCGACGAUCUCUGGUCACACUCGUGUAUAUGGUGUGUGCUUUGUGGACACUUCACUGGGCAAGUUUUUCAUCGGCCAGUUUUCGGAUGACCGCCACUGUUCCAGAUUUAGGACUCUAGUGGCUCACUAUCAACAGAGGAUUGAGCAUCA` the bound/input enrichment was 0.184 ratio.
`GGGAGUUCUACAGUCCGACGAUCUUGGAAGGACCAGAGCCUAAUCAACUGAAACCAUUAGUCAUACAGGCUAUGCCCACCCUAAUAGAACUAAUGAAAGACCCCAGUGUAGUUGUUCGAGAUACAGCUGCAUGGACUGUAGGCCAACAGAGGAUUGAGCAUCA` gave a bound/input enrichment of 1.16 ratio.
With `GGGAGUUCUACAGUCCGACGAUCUCUUAACGUCCAUUUAAAACUUAUUUUUAGCACUUAGUAAAUAUUGUUAGUCUUAGACAAUAGCUCACAUUUUUUGAGAAGCAUGCCCUCCCUGUCCAUUUGUCUUAUAACAUGACCCAGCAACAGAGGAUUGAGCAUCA` the bound/input enrichment was 187 ratio.
For `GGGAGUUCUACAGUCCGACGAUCUGGCGCCUGCGCUCCCCACUCGUGUUUUUAAGUGUAUUUUUAUAAGAUACAUGUAUUUACAAUUGAGCUUUUGUUACAUAAUGCUGAAAACAUCUCUGAGAUUAUGAAAAAAUGUUAAAUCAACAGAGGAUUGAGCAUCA`, the bound/input enrichment was 0.159 ratio.
With `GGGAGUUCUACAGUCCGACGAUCUAAGUUAUUUUGUACAGCUUUGUAAAUUCUUAACAUUUUUAUAUUGCCAUGUUUAUUUUGUUUGGGUAAUUUGGUUCAUACAUGGCCUAGCUAAGGUAAUGAACAUCUUUUUCAGUAAUUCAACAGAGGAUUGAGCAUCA` the bound/input enrichment was 1.29 ratio.
With `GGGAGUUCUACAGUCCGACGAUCUUACCCGAGAACGAGGAUGAAUUGGAGAGCACCAACAGGCGCUACACCAAGAGGGACUGUAGCACUUUCCUCAGAACUAGUGAGACGGGCAUCGUGGACCAGGUCAUGGUCACUCUCAACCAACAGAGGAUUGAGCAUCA` the bound/input enrichment was 0.212 ratio.
With `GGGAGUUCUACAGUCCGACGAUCACUCAGAGAUCCACCUCCCAAAGUGCUGGGAGUAAAGGUGUGGCCACCACACCUAACUUGAUGGAUAUAUAUUUUUUCUCUUUUAUGUGAACUCUUGCGUCCAGGGAAGAAAGAUUUGUUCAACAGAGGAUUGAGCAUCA` the bound/input enrichment was 0.152 ratio.
The bound/input enrichment of `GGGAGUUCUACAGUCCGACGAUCCAGCGCCGAGGCCGCGGGUGCCCGCCGGGCCUCCCCAGCAGCAGCCAUGGGCAUCAAAUUUUUAGAAGUUAUUAAACCAUUCUGUGCAGUUCUACCAGAAAUUCAGAAACCGGAAAGGAACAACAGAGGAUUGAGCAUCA` is reported as 4.47 ratio.

Set 2 — method: universal PBM; molecule type: double-stranded DNA, one strand shown; sample: in vitro; tested at: 600 nM; direction: higher = stronger binding
Target: Sal-like protein 4, full length isoform A (SALL4, Homo sapiens, UniProt Q9UJQ4, residues 1-1053)
UniProt Q9UJQ4, sequence (whole entry, looked up): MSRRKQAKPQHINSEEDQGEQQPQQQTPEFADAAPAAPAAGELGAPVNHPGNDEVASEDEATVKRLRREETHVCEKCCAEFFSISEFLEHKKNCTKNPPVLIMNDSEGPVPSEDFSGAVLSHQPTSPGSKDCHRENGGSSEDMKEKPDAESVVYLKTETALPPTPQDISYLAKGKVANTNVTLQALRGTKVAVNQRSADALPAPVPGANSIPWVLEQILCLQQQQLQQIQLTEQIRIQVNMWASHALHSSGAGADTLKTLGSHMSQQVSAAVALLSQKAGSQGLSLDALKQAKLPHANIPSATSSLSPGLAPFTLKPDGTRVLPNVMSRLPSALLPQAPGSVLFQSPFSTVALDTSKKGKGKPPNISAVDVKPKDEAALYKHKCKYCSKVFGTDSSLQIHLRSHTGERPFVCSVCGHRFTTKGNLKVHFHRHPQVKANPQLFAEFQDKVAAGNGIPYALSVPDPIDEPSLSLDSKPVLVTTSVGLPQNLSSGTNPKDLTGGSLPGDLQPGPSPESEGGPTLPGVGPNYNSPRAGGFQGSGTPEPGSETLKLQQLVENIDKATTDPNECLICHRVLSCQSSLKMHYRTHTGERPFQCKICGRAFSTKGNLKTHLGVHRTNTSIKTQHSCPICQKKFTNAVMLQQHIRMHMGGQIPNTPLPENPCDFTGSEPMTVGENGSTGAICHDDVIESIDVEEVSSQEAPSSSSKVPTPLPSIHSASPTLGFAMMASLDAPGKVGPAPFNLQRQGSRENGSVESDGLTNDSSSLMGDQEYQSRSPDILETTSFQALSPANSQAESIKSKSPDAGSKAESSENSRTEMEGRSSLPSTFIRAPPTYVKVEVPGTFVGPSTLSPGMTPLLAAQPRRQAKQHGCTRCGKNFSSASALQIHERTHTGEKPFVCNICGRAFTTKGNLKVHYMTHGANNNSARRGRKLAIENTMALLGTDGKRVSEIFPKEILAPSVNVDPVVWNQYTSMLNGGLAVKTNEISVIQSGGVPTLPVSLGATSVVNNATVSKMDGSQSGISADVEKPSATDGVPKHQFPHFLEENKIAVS
Setting: 8-mer, flanks averaged, mean of replicates
`CCTGTAAA` gave an E-score of 0.107.
For `CCTTCAGA`, the E-score was -0.048.
`GTAGTCTA` has an E-score of 0.0975.
For `CGAGCGCG`, the E-score was -0.222.
`CACAGGAC` gave an E-score of -0.146.
With `CAAGAACA` the E-score was 0.0842.
`TCGGTCCA` has an E-score of -0.207.
The E-score of `CGAGGCAG` is reported as -0.203.
With `CGTAGACA` the E-score was -0.0681.
`AATGTTAC` has an E-score of 0.17.
`AAGTCTAT` has an E-score of 0.219.
With `TACTCCCA` the E-score was 0.0826.
`GCCCTCAA` has an E-score of -0.147.
`CACTCGGG` has an E-score of -0.311.
The E-score of `ATCTAAAC` is reported as 0.203.
For `ACTGAGAT`, the E-score was 0.107.
`CCTAGTAA` has an E-score of -0.0781.
For `TCTTGAAA`, the E-score was 0.305.
With `ACTCACAG` the E-score was -0.0267.
For `GGATTCCA`, the E-score was 0.0416.
The E-score of `GTGTCGAA` is reported as -0.0993.
The E-score of `ATTATTGA` is reported as 0.421.
The E-score of `CGGGGTGC` is reported as -0.262.
The E-score of `CGAACACC` is reported as -0.283.

Set 3 — method: protein binding microarray; molecule type: double-stranded DNA, one strand shown; sample: in vitro; tested at: not given; relative to: not given; direction: higher = stronger binding
Target: Histone acetyltransferase KAT6A, winged helix 2, GST fusion (KAT6A, Homo sapiens, UniProt Q92794, residues 85-181)
Setting: 8-mer, flanks averaged, mean of 2 arrays, mostly near background
Target sequence (chain): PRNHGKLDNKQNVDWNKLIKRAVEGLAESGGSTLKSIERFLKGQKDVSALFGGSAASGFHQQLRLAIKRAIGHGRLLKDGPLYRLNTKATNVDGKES
`CCTTTTAA` has an E-score of -0.119.
With `ACTGAGAG` the E-score was -0.0674.
With `GTTCTATA` the E-score was -0.112.
With `CATTCGTC` the E-score was 0.00761.
`ACTCCAAA` has an E-score of -0.00948.
`GCGCCTCC` has an E-score of 0.0924.
The E-score of `GTGATGAA` is reported as -0.23.
The E-score of `CATATACG` is reported as -0.111.
For `TACCGATA`, the E-score was 0.00265.
`CATTCGGG` has an E-score of 0.0862.
`GCAGAGAA` has an E-score of 0.103.
`CTCCAGAG` gave an E-score of 0.0938.
With `GGAGGGAC` the E-score was -0.00153.
`ACATGTTG` gave an E-score of -0.0437.
The E-score of `GTCAGAGA` is reported as 0.0228.
For `GGCGGACC`, the E-score was 0.158.
With `CGCTTAAG` the E-score was -0.0626.
`ACCCTGAT` has an E-score of -0.0874.
With `AATATTCT` the E-score was -0.188.

Set 4 — method: protein-binding microarray; molecule type: double-stranded DNA, one strand shown; sample: in vitro; tested at: 0.8 µM; setting: whole 60-bp probe, no competitor; direction: higher = stronger binding
Target: Centromere-binding protein 1, full length, N-terminal tag (CBF1, Saccharomyces cerevisiae, UniProt P17106, residues 1-351)
UniProt P17106, sequence (whole entry, looked up): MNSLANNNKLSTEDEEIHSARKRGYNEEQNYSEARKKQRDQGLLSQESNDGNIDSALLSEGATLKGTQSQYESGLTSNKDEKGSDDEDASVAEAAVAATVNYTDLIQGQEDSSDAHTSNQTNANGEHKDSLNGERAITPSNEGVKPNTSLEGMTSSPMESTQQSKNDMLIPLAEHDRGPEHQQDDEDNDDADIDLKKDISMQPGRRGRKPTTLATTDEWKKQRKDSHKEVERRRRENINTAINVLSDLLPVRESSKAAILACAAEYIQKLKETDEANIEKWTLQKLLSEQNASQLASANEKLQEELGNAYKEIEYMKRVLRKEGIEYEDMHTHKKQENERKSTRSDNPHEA
With `CTAGATGACTCTATAATCGTGGTCGGAACGTGCTTCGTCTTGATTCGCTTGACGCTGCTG` the fluorescence intensity was 616 a.u.
For `GAAAAAATAGGGAAAAACGTGTACAAATGATTCTAGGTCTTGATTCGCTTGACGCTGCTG`, the fluorescence intensity was 672 a.u.
For `CTACACGGCATCTACCACATGTGGCTCAGGGTTTTCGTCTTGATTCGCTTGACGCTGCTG`, the fluorescence intensity was 615 a.u.
The fluorescence intensity of `CCTAACTACTATAATGTGATGACATAGCTTCGTACAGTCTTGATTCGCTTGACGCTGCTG` is reported as 571 a.u.
The fluorescence intensity of `TGTACGAAGCTATATCAGGGCCATATAGTAGTTAGGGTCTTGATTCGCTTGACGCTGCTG` is reported as 510 a.u.
`GAACACTAATTGTTAAACGTGTCAATTATGTGTTAGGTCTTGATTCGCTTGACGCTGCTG` has a fluorescence intensity of 620 a.u.
The fluorescence intensity of `CTACGTTCACATAGTCACATAACCACTAGTCACTTCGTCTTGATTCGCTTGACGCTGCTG` is reported as 563 a.u.
`CTAAGATCAAATCGAAACGGTCACAAACTTATGTTCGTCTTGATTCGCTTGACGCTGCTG` gave a fluorescence intensity of 532 a.u.
`GAAGCACACAGAGGTTATGTGACCATGGTAACCTAGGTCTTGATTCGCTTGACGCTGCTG` gave a fluorescence intensity of 534 a.u.
`CTACTCCATTTCTTAACGGTGACGAAGGATCACTTCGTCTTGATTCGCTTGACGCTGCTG` has a fluorescence intensity of 545 a.u.
`CTAATATATAAGATCCATGTGATAATGAATGCTTTCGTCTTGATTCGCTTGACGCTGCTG` has a fluorescence intensity of 1320 a.u.
`GAAGGTAGCGATGGTGGTGGTAGTGGTGTATGCTAGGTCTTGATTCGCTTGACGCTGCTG` has a fluorescence intensity of 537 a.u.
With `CCTAACTACTATAGACACGTTTCATAGCTTCGTACAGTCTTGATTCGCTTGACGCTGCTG` the fluorescence intensity was 634 a.u.
With `GAATTCTACGTACAAAACGTGTCTGCAGAACCTTAGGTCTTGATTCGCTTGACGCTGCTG` the fluorescence intensity was 568 a.u.
With `CTAGTATTATTGAGTCACGTGCTTTATTCCATGTTCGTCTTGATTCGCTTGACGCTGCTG` the fluorescence intensity was 23400 a.u.
For `CTATGCTCGAGAAAGCATCACGTTTTCACACATTTCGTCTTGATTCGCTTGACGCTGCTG`, the fluorescence intensity was 1970 a.u.
The fluorescence intensity of `CCTAACTACTATAAAGGCGTGGTATAGCTTCGTACAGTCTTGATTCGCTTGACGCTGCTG` is reported as 537 a.u.
For `GAACGGTAACCAATTCACGTTGCCGATCGAGGTTAGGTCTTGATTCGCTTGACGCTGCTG`, the fluorescence intensity was 588 a.u.
With `CTATAAGGTTGTTATCTCGTGGACCACAACGCATTCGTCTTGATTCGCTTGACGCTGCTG` the fluorescence intensity was 549 a.u.
For `GAAACTCAGACGAGCAATATCACGTGTTGCGATTAGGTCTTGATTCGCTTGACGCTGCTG`, the fluorescence intensity was 11300 a.u.
With `CTATTAATAATGCTACAGGAGACCATAAGTGATTTCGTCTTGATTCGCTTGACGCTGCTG` the fluorescence intensity was 560 a.u.
With `GAATGTGGGAAAAATCACGTGCGAGAAAGTAAGTAGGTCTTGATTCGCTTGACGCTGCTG` the fluorescence intensity was 9110 a.u.
`GAAAGAAACATCCATGTGATAAAACTCCGCACGTAGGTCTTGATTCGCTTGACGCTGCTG` gave a fluorescence intensity of 1120 a.u.
With `GAACTTTTTAATATCCTCGTGCTGCTCAAGGTATAGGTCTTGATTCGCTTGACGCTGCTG` the fluorescence intensity was 730 a.u.
For `GAACTCAACTCGTTTGATGTTACTTTCTTTGCCTAGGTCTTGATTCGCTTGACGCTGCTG`, the fluorescence intensity was 468 a.u.

Repeated from above (set 4):
With `CTAGTATTATTGAGTCACGTGCTTTATTCCATGTTCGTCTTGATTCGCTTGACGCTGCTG` the fluorescence intensity was 23400 a.u.
For `CTATGCTCGAGAAAGCATCACGTTTTCACACATTTCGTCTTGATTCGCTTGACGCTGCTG`, the fluorescence intensity was 1970 a.u.
The fluorescence intensity of `CCTAACTACTATAAAGGCGTGGTATAGCTTCGTACAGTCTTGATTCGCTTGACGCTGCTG` is reported as 537 a.u.
For `GAACGGTAACCAATTCACGTTGCCGATCGAGGTTAGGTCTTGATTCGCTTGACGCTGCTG`, the fluorescence intensity was 588 a.u.
With `CTATAAGGTTGTTATCTCGTGGACCACAACGCATTCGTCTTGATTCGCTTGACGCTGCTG` the fluorescence intensity was 549 a.u.
For `GAAACTCAGACGAGCAATATCACGTGTTGCGATTAGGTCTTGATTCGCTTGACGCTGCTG`, the fluorescence intensity was 11300 a.u.
